Assay results pooled from the literature.
Each numbered part is a random draw from the data of one study; scales do not carry over between parts.
Sequence of UniProt P54756 (whole entry, looked up): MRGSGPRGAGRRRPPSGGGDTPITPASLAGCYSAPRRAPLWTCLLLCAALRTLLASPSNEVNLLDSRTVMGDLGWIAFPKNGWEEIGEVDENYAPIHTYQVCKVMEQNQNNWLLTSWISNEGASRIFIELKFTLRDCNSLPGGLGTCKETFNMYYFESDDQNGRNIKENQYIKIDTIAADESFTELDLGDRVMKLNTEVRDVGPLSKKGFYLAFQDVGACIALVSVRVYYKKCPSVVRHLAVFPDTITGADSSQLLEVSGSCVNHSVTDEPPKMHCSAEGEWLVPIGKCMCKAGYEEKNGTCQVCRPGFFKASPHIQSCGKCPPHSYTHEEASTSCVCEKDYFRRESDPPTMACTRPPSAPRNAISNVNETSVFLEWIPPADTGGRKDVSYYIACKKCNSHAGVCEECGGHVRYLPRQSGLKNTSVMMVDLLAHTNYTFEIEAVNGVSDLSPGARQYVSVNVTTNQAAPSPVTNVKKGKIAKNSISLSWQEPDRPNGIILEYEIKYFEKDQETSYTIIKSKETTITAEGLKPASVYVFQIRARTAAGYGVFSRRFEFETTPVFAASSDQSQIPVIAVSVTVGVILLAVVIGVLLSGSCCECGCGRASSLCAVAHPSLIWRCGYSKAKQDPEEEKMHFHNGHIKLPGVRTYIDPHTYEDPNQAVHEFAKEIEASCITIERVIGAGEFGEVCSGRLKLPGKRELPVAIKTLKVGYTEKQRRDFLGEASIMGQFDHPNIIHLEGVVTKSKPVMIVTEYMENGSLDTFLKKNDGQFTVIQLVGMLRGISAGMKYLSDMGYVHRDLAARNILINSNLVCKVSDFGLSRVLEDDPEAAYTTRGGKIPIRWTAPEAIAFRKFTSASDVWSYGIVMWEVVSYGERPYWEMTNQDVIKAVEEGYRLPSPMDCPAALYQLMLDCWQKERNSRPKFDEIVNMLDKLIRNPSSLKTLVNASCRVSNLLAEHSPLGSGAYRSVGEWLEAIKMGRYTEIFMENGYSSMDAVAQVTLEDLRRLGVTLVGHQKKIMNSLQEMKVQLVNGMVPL
Sequence of UniProt P21802 (whole entry, looked up): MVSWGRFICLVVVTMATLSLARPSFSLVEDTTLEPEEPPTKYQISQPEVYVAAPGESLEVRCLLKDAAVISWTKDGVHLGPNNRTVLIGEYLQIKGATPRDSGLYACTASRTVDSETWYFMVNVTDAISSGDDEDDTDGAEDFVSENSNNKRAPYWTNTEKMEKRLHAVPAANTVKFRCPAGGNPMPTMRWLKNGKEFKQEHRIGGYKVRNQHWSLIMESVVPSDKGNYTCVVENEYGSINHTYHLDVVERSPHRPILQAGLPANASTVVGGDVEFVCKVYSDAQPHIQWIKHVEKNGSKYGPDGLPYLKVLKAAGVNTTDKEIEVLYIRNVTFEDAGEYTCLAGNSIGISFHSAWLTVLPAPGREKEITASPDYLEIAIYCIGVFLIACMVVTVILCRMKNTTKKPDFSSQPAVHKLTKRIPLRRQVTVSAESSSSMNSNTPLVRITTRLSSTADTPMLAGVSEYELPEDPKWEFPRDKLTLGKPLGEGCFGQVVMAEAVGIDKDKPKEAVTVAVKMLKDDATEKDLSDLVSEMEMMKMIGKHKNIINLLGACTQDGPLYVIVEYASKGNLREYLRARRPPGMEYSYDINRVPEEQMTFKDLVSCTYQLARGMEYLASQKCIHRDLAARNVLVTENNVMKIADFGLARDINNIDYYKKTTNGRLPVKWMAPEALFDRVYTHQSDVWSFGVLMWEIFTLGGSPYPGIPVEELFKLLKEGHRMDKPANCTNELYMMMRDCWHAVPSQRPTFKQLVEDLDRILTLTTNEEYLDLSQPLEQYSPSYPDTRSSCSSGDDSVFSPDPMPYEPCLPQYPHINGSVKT
Sequence of UniProt Q9UK32 (whole entry, looked up): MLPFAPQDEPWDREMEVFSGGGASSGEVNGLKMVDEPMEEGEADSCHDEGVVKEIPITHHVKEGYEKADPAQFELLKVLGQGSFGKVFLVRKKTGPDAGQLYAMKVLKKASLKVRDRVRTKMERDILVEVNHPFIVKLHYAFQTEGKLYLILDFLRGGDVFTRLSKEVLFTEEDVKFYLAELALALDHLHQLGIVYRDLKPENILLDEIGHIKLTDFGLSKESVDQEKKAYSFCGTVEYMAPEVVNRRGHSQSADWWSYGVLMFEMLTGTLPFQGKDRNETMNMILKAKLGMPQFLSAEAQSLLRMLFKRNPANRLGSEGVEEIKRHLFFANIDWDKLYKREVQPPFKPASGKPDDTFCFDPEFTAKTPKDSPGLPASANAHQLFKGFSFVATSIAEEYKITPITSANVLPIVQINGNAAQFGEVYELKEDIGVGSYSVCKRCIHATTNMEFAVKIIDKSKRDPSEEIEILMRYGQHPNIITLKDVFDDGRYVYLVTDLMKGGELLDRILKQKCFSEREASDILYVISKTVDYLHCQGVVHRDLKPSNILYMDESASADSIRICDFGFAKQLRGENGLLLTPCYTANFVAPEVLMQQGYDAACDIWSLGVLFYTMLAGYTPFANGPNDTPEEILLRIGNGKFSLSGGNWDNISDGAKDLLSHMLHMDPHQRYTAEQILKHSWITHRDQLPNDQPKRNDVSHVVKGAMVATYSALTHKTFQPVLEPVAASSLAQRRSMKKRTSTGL
Sequence of UniProt P45983 (whole entry, looked up): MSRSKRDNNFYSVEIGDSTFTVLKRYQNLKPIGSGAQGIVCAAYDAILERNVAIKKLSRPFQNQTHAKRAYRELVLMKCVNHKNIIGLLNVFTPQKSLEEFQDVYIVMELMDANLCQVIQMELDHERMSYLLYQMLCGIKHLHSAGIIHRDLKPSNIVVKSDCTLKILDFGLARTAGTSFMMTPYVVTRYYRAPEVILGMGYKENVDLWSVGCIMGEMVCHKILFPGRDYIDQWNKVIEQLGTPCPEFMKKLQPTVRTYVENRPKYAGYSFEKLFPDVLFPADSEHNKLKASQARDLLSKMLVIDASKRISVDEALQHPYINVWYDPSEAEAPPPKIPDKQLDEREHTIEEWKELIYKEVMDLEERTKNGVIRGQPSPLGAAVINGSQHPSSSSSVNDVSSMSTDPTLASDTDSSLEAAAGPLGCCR
Sequence of UniProt Q13523 (whole entry, looked up): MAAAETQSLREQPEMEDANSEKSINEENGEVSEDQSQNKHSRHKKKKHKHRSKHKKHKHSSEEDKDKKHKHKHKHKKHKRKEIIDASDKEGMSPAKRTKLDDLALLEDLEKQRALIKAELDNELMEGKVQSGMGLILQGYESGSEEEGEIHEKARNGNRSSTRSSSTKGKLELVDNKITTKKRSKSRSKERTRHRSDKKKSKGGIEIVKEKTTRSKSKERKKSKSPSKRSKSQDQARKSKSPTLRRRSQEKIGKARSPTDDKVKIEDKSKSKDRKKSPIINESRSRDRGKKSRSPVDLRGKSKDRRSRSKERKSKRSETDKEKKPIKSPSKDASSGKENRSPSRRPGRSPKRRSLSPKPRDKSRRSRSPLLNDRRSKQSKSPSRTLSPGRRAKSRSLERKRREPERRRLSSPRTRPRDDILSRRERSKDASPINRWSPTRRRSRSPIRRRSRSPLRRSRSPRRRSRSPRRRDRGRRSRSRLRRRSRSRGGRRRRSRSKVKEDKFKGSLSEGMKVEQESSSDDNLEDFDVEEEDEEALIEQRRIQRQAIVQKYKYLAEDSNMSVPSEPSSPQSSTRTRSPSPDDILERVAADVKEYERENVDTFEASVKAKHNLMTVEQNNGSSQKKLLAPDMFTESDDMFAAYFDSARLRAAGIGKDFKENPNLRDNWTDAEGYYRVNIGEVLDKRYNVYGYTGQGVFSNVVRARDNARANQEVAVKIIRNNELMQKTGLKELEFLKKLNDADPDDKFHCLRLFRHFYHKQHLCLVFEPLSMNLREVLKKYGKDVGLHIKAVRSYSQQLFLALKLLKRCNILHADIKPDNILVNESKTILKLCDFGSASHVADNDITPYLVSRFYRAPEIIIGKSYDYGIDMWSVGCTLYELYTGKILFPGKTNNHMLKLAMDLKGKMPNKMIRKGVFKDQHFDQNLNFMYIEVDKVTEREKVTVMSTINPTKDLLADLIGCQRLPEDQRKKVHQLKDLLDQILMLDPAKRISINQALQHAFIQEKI
Sequence of UniProt Q9BWU1 (whole entry, looked up): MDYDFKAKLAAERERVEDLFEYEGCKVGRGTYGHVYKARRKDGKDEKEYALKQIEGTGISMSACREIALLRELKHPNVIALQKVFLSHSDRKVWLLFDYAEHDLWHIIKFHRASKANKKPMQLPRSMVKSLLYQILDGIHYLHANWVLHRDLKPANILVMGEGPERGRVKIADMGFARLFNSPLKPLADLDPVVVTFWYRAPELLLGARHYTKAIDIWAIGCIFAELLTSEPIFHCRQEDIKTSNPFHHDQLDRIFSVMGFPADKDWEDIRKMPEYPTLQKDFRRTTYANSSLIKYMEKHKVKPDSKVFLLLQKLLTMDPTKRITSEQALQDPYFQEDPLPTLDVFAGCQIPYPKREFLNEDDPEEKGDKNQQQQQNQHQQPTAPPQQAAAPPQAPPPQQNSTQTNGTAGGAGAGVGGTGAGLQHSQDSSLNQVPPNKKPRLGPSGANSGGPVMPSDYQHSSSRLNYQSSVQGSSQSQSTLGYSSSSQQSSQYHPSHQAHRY
Sequence of UniProt Q13177 (whole entry, looked up): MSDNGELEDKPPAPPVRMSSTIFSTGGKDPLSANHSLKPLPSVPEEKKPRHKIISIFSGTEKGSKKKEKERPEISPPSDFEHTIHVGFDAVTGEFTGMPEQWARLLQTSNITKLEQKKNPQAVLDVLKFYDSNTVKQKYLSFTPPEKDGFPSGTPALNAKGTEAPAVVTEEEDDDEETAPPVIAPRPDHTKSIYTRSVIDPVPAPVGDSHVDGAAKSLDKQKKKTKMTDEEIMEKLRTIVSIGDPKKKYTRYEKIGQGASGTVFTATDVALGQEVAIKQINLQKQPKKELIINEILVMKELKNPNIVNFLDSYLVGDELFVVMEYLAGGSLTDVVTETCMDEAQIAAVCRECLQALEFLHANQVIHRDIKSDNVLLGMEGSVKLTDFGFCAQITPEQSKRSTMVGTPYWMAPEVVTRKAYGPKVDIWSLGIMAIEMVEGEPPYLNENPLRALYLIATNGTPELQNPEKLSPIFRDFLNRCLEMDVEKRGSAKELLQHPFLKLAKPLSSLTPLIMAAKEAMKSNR

Series 1
Compound: COc1ccc2[nH]c3c4[nH]c5ccc(OC)cc5c4c4c(c3c2c1)C(=O)NC4=O
Effect on: binding
Concentration: 1 µM
target	assay	remaining binding [%]
MAP2K3 (Homo sapiens, UniProt P46734)		46
Ribosomal protein S6 kinase alpha-6, C-terminal kinase domain (RPS6KA6, Homo sapiens, UniProt Q9UK32)	competition with immobilised ligand	61
MAP3K5 (Homo sapiens, UniProt Q99683)		83
FGFR2 (Homo sapiens, UniProt P21802)	competition with immobilised ligand	88
PIP4K2B (Homo sapiens, UniProt P78356)		100
NLK (Homo sapiens, UniProt Q9UBE8)	competition with immobilised ligand	52

Series 2
SMILES: O=C(NCc1ncc(C(F)(F)F)cc1Cl)c1ccc2c(c1)C1(CCS(=O)(=O)CC1)[C@H](C1CC1)N2S(=O)(=O)c1ccc(F)cc1
Concentration: 1 µM
target	assay	remaining binding
Ribosomal protein S6 kinase alpha-5, C-terminal kinase domain (RPS6KA5, Homo sapiens, UniProt O75582)	cell-free assay, competition with immobilised ligand	100%
STK35 (Homo sapiens, UniProt Q8TDR2)	cell-free assay, competition with immobilised ligand	100%
BRSK1 (Homo sapiens, UniProt Q8TDC3)	cell-free assay, competition with immobilised ligand	100%
DMPK (Homo sapiens, UniProt Q09013)	cell-free assay, competition with immobilised ligand	93%
CDK19 (Homo sapiens, UniProt Q9BWU1)	competition binding	100%
FRK (Homo sapiens, UniProt P42685)	cell-free assay, competition with immobilised ligand	100%
EPHA6 (Homo sapiens, UniProt Q9UF33)	cell-free assay, competition with immobilised ligand	100%
MAPK8 (Homo sapiens, UniProt P45983)	cell-free assay, competition with immobilised ligand	87%
EPHA5 (Homo sapiens, UniProt P54756)	cell-free assay, competition with immobilised ligand	100%
MTOR (Homo sapiens, UniProt P42345)	cell-free assay, competition with immobilised ligand	100%
PAK2 (Homo sapiens, UniProt Q13177)	cell-free assay, competition with immobilised ligand	100%
PRPF4B (Homo sapiens, UniProt Q13523)	cell-free assay, competition with immobilised ligand	100%
EGFR (Homo sapiens, UniProt P00533, L858R)	cell-free assay, competition with immobilised ligand	94%
WNK2 (Homo sapiens, UniProt Q9Y3S1)	cell-free assay, competition with immobilised ligand	97%

Series 3
SMILES: CC(C)n1cnc(-c2ccc(F)cc2)c1-c1ncc(C(=O)Nc2ccc(N3CCN(C)CC3)cc2)[nH]1
assay	system	setting	patients with decreased appetite
phase 2a trial	idiopathic pulmonary fibrosis patients	60 mg once daily, adverse event grade 5	0%
phase 2a trial	idiopathic pulmonary fibrosis patients	60 mg once daily, adverse event grade 3	0%
	human, idiopathic pulmonary fibrosis	30 mg once daily, trial, treatment-emergent	0%
phase 2a trial	idiopathic pulmonary fibrosis patients	30 mg once daily, adverse event grade 2	0%
phase 2a trial	idiopathic pulmonary fibrosis patients	30 mg once daily, adverse event grade 4	0%

Series 4
Organism: Sarcocystis neurona
Effect on: parasite growth
Concentration: concentration not given
Notes: first screen
Baseline: untreated
Structure (SMILES)	log2 fold change
Cl.c1ccc2c(c1)CCCC2C1=NCCN1 (centres unmarked)	0.14
CN(C)CC[C@@H](c1ccc(Br)cc1)c1ccccn1.O=C(O)/C=C\C(=O)O (single isomer, unassigned)	0.12
CC[C@@H](CO)NCCN[C@@H](CC)CO	-0.02
NC(=O)OCC(COC(N)=O)c1ccccc1.O	-0.06

Excerpt of the above (series 1):
target	assay	remaining binding [%]
Ribosomal protein S6 kinase alpha-6, C-terminal kinase domain (RPS6KA6, Homo sapiens, UniProt Q9UK32)	competition with immobilised ligand	61
NLK (Homo sapiens, UniProt Q9UBE8)	competition with immobilised ligand	52
MAP3K5 (Homo sapiens, UniProt Q99683)		83
MAP2K3 (Homo sapiens, UniProt P46734)		46
